Measured values gathered from unrelated publications.
Each line is one published result; not all experiments were run side by side. ± gives the spread as reported.

CCCC[C@H](NC(=O)CCCCCCCNC(=O)CN1CCN(CC(=O)O)CCN(CC(=O)O)CC1)C(=O)N[C@H]1CC(=O)NCCCC[C@@H](C(N)=O)NC(=O)[C@H](Cc2c[nH]c3ccccc23)NC(=O)[C@H](CCCNC(=N)N)NC(=O)[C@@H](Cc2ccccc2)NC(=O)[C@H](Cc2c[nH]cn2)NC1=O [fluorine-18 labelled]  tissue uptake (C57 mice B16-F10 melanoma, heart; intravenous, 0.37 MBq, 1 h): 0.7 ± 0.61 %ID/g
O=C([O-])CN1CCN(CC(=O)[O-])CCN(CC(=O)NC[C@H]2CC[C@H](C(=O)N[C@H](Cc3cnc4ccccc4c3)C(=O)NCCCC[C@H](NC(=O)N[C@@H](CCC(=O)O)C(=O)O)C(=O)O)CC2)CCN(CC(=O)[O-])CC1.[64Cu+2]  tissue uptake (ex vivo gamma counting; 22Rv1 tumour-bearing mice, heart; intravenous, 0.74 MBq, 6 h post-injection): 5.65 %ID/g
COc1ccc(Nc2nc(Nc3ccc(OCCOCC[18F])cc3)ncc2Br)cc1  tissue uptake (ICR mice, S180 tumour, stomach; intravenous, 370 kBq, 15 min): 0.51 ± 0.04 %ID
N#C[C@@H]1CCCN1C(=O)CNC(=O)c1ccnc2ccc(OCCCN3CCN(C(=O)CCc4ccc5c(c4)CN4CCN6CC(=O)[O][68Ga-]([O]C(=O)C4)([O]5)[O]c4ccc(CCC(=O)N5CCN(CCCOc7ccc8nccc(C(=O)NCC(=O)N9CCC[C@H]9C#N)c8c7)CC5)cc4C6)CC3)cc12  tissue uptake (BALB/c nude mice, U-87 MG xenograft, spleen; 1 h): 0.72 ± 0.07 %ID/g
O=C(O)CCCOc1ccc([18F])cc1-c1cc(-c2ccccc2C(F)(F)F)n(-c2ccccc2)n1  tissue uptake (mice, small intestine; intravenous, 30 min): 1.76 ± 0.1 %ID/g
N#C[C@@H]1CCCN1C(=O)CNC(=O)c1ccnc2ccc(OCCCN3CCN(C(=O)CCc4ccc5c(c4)CN4CCN(Cc6cc(CCC(=O)O)ccc6O)CC(=O)[O][Al-]([18F])([O]C(=O)C4)[O]5)CC3)cc12 (stereo partly drawn)  tissue uptake (BALB/c nude mice, U-87 MG xenograft, heart; 2 h): 0.61 ± 0.11 %ID/g
CCCC[C@H](NC(=O)COCCOCCNC(=O)CN1CCN(CC(=O)O)CCN(CC(=O)O)CC1)C(=O)N[C@H]1CC(=O)NCCCC[C@@H](C(N)=O)NC(=O)[C@H](Cc2c[nH]c3ccccc23)NC(=O)[C@H](CCCNC(=N)N)NC(=O)[C@@H](Cc2ccccc2)NC(=O)[C@H](Cc2c[nH]cn2)NC1=O [fluorine-18 labelled]  tissue uptake (C57 mice B16-F10 melanoma, kidneys; intravenous, 0.37 MBq, 2 h): 1.32 ± 0.3 %ID/g
Cc1cc(C)n(CCN(CCN)CCCCCCNC(=O)[C@@H](N)Cc2c[nH]cn2)n1.[99Tc+].[C-]#[O+].[C-]#[O+].[C-]#[O+]  tissue uptake (BALB/c nude mice, A549 xenograft, liver; intravenous, 15 min): 21.1 ± 1.96 %IA/g
O=C(NCC1OC2CCC=CCCC2O1)c1ccc(COCCOCCOCC[18F])cc1 (stereo not drawn)  tissue uptake (healthy female BALB/c nude mice, bone; intravenous, 7.4 MBq per mouse, 15 min): 1.9 ± 0.8 %ID/g
CC(C)C[C@H](NC(=O)[C@@H](CCCCNC(=O)[C@@H](Cc1ccccc1)NC(=O)CCCCCCCNC(=O)CN1CCN(CC(=O)O)CCN(CC(=O)O)CCN(CC(=O)O)CC1)NC(=O)[C@H](Cc1ccc(O)cc1)NC(=O)[C@H](CO)NC(=O)[C@H](Cc1c[nH]c2ccccc12)NC(=O)[C@H](Cc1c[nH]cn1)NC(=O)[C@@H]1CCC(=O)N1)C(=O)N[C@@H](CCCNC(=N)N)C(=O)N1CCC[C@H]1C(=O)NCC(N)=O [indium-111 labelled]  tissue uptake (biodistribution; male athymic nude mice, DU-145 prostate cancer xenograft, tumor; intravenous, 0.037 MBq, 0.5 h post-injection): 1.13 ± 0.36 %ID/g
Cc1cc(C)n(CCN(CCN)CCCCCCNC(=O)[C@@H](N)Cc2c[nH]c3ccccc23)n1.[99Tc+].[C-]#[O+].[C-]#[O+].[C-]#[O+]  tissue uptake (BALB/c nude mice A549 xenograft, tumor; intravenous, 4 h): 0.56 ± 0.08 %ID/g
CCCC[C@H](NC(=O)CNC(=O)CNC(=O)[C@H](CCCCNC(=O)C(C)c1ccc(CC(C)C)cc1)NC(=O)CN1CCN(CC(=O)O)CCN(CC(=O)O)CCN(CC(=O)O)CC1)C(=O)N[C@H]1CC(=O)NCCCC[C@@H](C(N)=O)NC(=O)[C@H](Cc2c[nH]c3ccccc23)NC(=O)[C@H](CCCNC(=N)N)NC(=O)[C@@H](Cc2ccccc2)NC(=O)[C@H](Cc2c[nH]cn2)NC1=O (stereo partly drawn) [lutetium-177 labelled]  tissue uptake (C57 mice, tumour-bearing, bone; 2 h): 0.75 ± 0.33 %ID/g
COc1ccc2c(c1)C(C)(C)C(/C=C/C1=C(Oc3ccc(C(=O)NCCCCOc4cc(CN(Cc5ccccn5)Cc5ccccn5)cc(CN(Cc5ccccn5)Cc5ccccn5)c4)cc3)C(=C/C=C3/N(CCCCS(=O)(=O)[O-])c4ccc(OC)cc4C3(C)C)CCC1)=[N+]2CCCCS(=O)(=O)[O-].O=[N+]([O-])[O-].O=[N+]([O-])[O-].[99Tc+].[C-]#[O+].[C-]#[O+].[C-]#[O+].[Zn+2]  tissue uptake (BALB/c mice, S. aureus myositis, blood; 12 h post-injection): 1.26 %ID/g
O=C(NCC1OC2CCC=CCCC2O1)c1ccc([18F])nc1 (stereo not drawn)  tissue uptake (healthy female BALB/c nude mice, kidneys; intravenous, 7.4 MBq per mouse, 2 min): 12.1 ± 1.6 %ID/g
COc1ccc(Nc2nc(Nc3ccc(OCCOCCOCC[18F])cc3)ncc2Br)cc1  tissue uptake (ICR mice, S180 tumour-bearing, spleen; intravenous, 370 kBq, 15 min): 2.11 ± 0.19 %ID/g

A few entries again:
COc1ccc(Nc2nc(Nc3ccc(OCCOCCOCC[18F])cc3)ncc2Br)cc1  tissue uptake (ICR mice, S180 tumour-bearing, spleen; intravenous, 370 kBq, 15 min): 2.11 ± 0.19 %ID/g
